Results pooled from the literature.
± gives the spread as reported.

The inhibition of C=CC(=O)N1C[C@H](C)N(c2nc(OC[C@@]34CCCN3C[C@H](F)C4)nc3c(F)c(-c4ccc(F)c5sc(N)c(C#N)c45)c(C(F)(F)F)cc23)C[C@H]1C is reported as 41% (measured: phospho-ERK; mouse MIA PaCa-2 Matrigel plug; 30 mg/kg single dose, 72 h).
With COc1c2c(cc3oc(CO)cc(=O)c13)O[C@H](C(C)(C)O)C2 the inhibition was 70% (ear edema weight; mouse, xylene ear edema; oral, 4 mg/kg; baseline: vehicle).
CC(=O)C12NC(C)(C)CC1(C)C(=O)C1=C2c2c(c3c4n2C(C)(C)CC2=C4C4(CC(C)(C)NC(C)(C4)C2=O)CC3(C)C)C(=O)C(C)(C)N1 (single isomer, unassigned; (+)) has an inhibition of 87.1 ± 2.3% (acetic acid-induced writhing; mouse; intraperitoneal, 5 mg/kg, 0.5 h, writhes counted over 30 min).
C[C@H]1CN(C(=O)c2cn(-c3ccnc(N)n3)c3cc(C#CC4(O)CCCCC4)ccc23)CCN1: “inhibition of lung metastasis” > 80% (A549, mouse, lung metastasis model; dose not given).
For CCCC1OC2CC3C4CCC5=CC(=O)C=CC5(C)C4C(O)CC3(C)C2(C(=O)COC(=O)CN)O1 (centres unmarked), “inhibition of ear edema” read 30.7% (mouse, xylene-induced ear edema; intraperitoneal, equivalent to 200 µg/kg budesonide, 1 h before xylene).
For CC(C)c1cnc(-c2cc(Cl)ccc2F)cc1Nc1ccncc1C(=O)NC(CO)CO, the inhibition was 29% (measured: pSMAD2; MC-38 tumour-bearing mouse, tumour; 10 mg/kg, 0 to 8 h average; baseline: vehicle).
The inhibition of COc1c2c(cc3oc(C)cc(=O)c13)O[C@H](C(C)(C)O[C@@H]1O[C@H](CO)[C@@H](O)[C@H](O)[C@H]1O)C2 is reported as 12% (ear edema weight; mouse, xylene ear edema; oral, 4 mg/kg; baseline: vehicle).
With COC(=O)C1OC(Oc2c(-c3ccccc3)oc3cc(O)c(O)c(O)c3c2=O)C(O)C(O)C1O (centres unmarked) the inhibition was 9.2% (paw oedema; mouse carrageenan paw oedema; 1 mg/kg, 0 h).
